Measurements of several laboratories.
Compare with care: the assays were run in different laboratories.
Cell line: human red blood cells

CC(C)C[C@H](N)C(=O)N[C@@H](Cc1c[nH]c2ccccc12)C(=O)N[C@@H](Cc1c[nH]c2ccccc12)C(=O)N[C@@H](CCCNC(=N)N)C(=O)N[C@@H](Cc1c[nH]c2ccccc12)C(=O)N[C@@H](Cc1c[nH]c2ccccc12)C(=O)N[C@@H](CCCNC(=N)N)C(=O)N[C@@H](Cc1c[nH]c2ccccc12)C(=O)N[C@@H](CCCNC(=N)N)C(=O)O  lowest hemolytic concentration (1 h, 37 °C, 10% hemolysis): > 256 µg/mL
CC[C@H](C)[C@H](NC(=O)[C@H](Cc1ccccc1)NC(=O)[C@H](Cc1ccccc1)NC(=O)[C@@H](NC(=O)[C@@H](NC(=O)[C@H](CCCCN)NC(=O)[C@H](CCC(N)=O)NC(=O)[C@H](Cc1c[nH]cn1)NC(=O)[C@H](CO)NC(=O)[C@H](CO)NC(=O)[C@@H](NC(=O)[C@@H]1CCCN1C(=O)[C@H](C)NC(=O)[C@H](Cc1ccccc1)NC(=O)[C@H](CCCNC(=N)N)NC(=O)[C@H](CC(C)C)NC(=O)[C@H](Cc1ccccc1)NC(=O)[C@H](CCCCN)NC(=O)[C@H](C)NC(=O)CNC(=O)[C@H](CCCCN)NC(=O)[C@H](CCCNC(=N)N)NC(=O)[C@H](CCCCN)NC(=O)[C@@H](NC(=O)[C@H](Cc1ccccc1)NC(=O)[C@@H](NC(=O)[C@H](CC(=O)O)NC(=O)[C@@H](NC(=O)[C@@H](NC(=O)[C@@H](N)CCCCN)[C@@H](C)CC)[C@@H](C)O)C(C)C)C(C)C)C(C)C)C(C)C)[C@@H](C)O)C(=O)N[C@@H](Cc1c[nH]cn1)C(=O)O  HC50 (hemolysis): 3550 µmol/L
CC(C)C[C@H](NC(=O)CNC(=O)[C@H](CCCCN)NC(=O)[C@H](CC(C)C)NC(=O)[C@H](CC(C)C)NC(=O)[C@H](CC(C)C)NC(=O)[C@@H](N)CCCCN)C(=O)NCC(=O)N[C@@H](CCCCN)C(=O)N[C@@H](CC(C)C)C(=O)N[C@@H](CC(C)C)C(=O)N[C@@H](CC(C)C)C(=O)N[C@@H](CCCCN)C(=O)O  lowest hemolytic concentration (1 h, 37 °C, 10% hemolysis): > 256 µg/mL
CC(=O)N[C@@H](CCCCN)C(=O)N[C@@H](CCCCN)C(=O)N[C@@H](CC(C)C)C(=O)N[C@@H](CC(C)C)C(=O)N[C@@H](CCCCN)C(=O)N[C@@H](CC(C)C)C(=O)N[C@@H](CC(C)C)C(=O)N[C@@H](C)C(=O)N[C@@H](CCCCN)C(=O)N1CCC[C@H]1C(=O)N[C@@H](CC(C)C)C(=O)N[C@@H](CCCCN)C(=O)N[C@@H](CC(C)C)C(=O)N[C@@H](CC(C)C)C(=O)N[C@@H](CCCCN)C(N)=O  MHC10 (haemolysis; 6 h, 37 °C, 5% haematocrit in PBS): > 160 µM
CC[C@H](C)[C@H](NC(=O)[C@H](CC(C)C)NC(=O)[C@@H](NC(=O)[C@H](CCCCN)NC(=O)[C@H](CCCNC(=N)N)NC(=O)[C@H](CCCCN)NC(=O)[C@H](CC(C)C)NC(=O)[C@H](Cc1ccc(O)cc1)NC(=O)[C@@H](NC(=O)[C@@H](NC(=O)[C@H](Cc1ccccc1)NC(=O)CN)C(C)C)C(C)C)[C@@H](C)O)C(=O)N[C@@H](CCCNC(=N)N)C(=O)N[C@@H](CC(C)C)C(=O)N[C@@H](CC(C)C)C(=O)N[C@@H](Cc1ccccc1)C(=O)N[C@H](C(=O)N[C@@H](CC(N)=O)C(=O)N[C@@H](CCCCN)C(=O)N[C@@H](CCCCN)C(=O)N[C@H](C(=O)N[C@H](C(=O)N[C@H](C(=O)N[C@@H](CCC(=O)O)C(=O)N[C@@H](CCCCN)C(=O)N[C@@H](CC(C)C)C(=O)N[C@@H](CCCNC(=N)N)C(=O)N[C@@H](CS)C(=O)N[C@H](C(=O)N[C@@H](CCCNC(=N)N)C(=O)N1CCC[C@H]1C(=O)N[C@@H](CO)C(=O)N[C@@H](CCCNC(=N)N)C(=O)N1CCC[C@H]1C(=O)N1CCC[C@H]1C(=O)N[C@@H](CCCNC(=N)N)C(=O)NCC(=O)N[C@@H](Cc1ccccc1)C(=O)O)C(C)C)[C@@H](C)CC)[C@@H](C)O)[C@@H](C)O)[C@@H](C)O  HC50 (hemolysis): 72.1 µmol/L
CCCCCCCC(=O)N[C@@H](CCCCN)C(=O)N[C@@H](CCCCN)C(=O)N[C@@H](C)C(=O)N[C@@H](CC(C)C)C(=O)N[C@@H](CCCCN)C(=O)N[C@@H](CC(C)C)C(=O)N[C@@H](C)C(=O)N[C@@H](CCCCN)C(=O)N[C@@H](CCCCN)C(=O)N1CCC[C@H]1C(=O)N[C@@H](CC(C)C)C(=O)N[C@@H](CCCCN)C(=O)N[C@@H](CC(C)C)C(=O)N[C@@H](CC(C)C)C(=O)N[C@@H](CCCCN)C(N)=O  MHC10 (haemolysis; 6 h, 37 °C, 5% haematocrit in PBS): > 160 µM
CC[C@H](C)[C@H](NC(=O)[C@H](CCCCN)NC(=O)[C@H](CCCCN)NC(=O)[C@H](Cc1ccccc1)NC(=O)[C@@H](NC(=O)[C@@H](NC(=O)[C@H](CCCNC(=N)N)NC(=O)[C@H](Cc1ccccc1)NC(=O)[C@@H](NC(=O)[C@H](CCCCN)NC(=O)[C@H](CCCCN)NC(=O)[C@@H](N)CCSC)[C@@H](C)CC)C(C)C)[C@@H](C)CC)C(=O)N[C@@H](CC(C)C)C(=O)N[C@@H](CCCCN)C(=O)N[C@@H](CCCNC(=N)N)C(=O)N[C@@H](CC(C)C)C(=O)N[C@H](C(=O)N[C@H](C(=O)O)C(C)C)[C@@H](C)CC  haemolysis (8 µg/mL, 1 h, 37 °C; relative to: Triton X-100): 7.65%
CC(C)C[C@H](NC(=O)CNC(=O)[C@H](CC(C)C)NC(=O)[C@H](CC(C)C)NC(=O)[C@H](CC(C)C)NC(=O)[C@H](CCCCN)NC(=O)[C@@H](N)CCCCN)C(=O)NCC(=O)N[C@@H](CC(C)C)C(=O)N[C@@H](CC(C)C)C(=O)N[C@@H](CC(C)C)C(=O)N[C@@H](CCCCN)C(=O)N[C@@H](CCCCN)C(=O)O  lowest hemolytic concentration (1 h, 37 °C, 10% hemolysis): > 256 µg/mL
CC[C@H](C)[C@H](NC(=O)[C@H](CCCNC(=N)N)NC(=O)[C@@H](NC(=O)[C@H](CC(C)C)NC(=O)[C@H](Cc1c[nH]c2ccccc12)NC(=O)[C@H](Cc1ccc(O)cc1)NC(=O)[C@@H](NC(=O)[C@H](CO)NC(=O)[C@@H](NC(=O)[C@H](CCCNC(=N)N)NC(=O)[C@H](CCC(N)=O)NC(=O)[C@H](CCCNC(=N)N)NC(=O)[C@@H]1CCCN1C(=O)[C@H](CC(C)C)NC(=O)[C@H](CO)NC(=O)[C@@H](NC(=O)[C@H](CC(C)C)NC(=O)[C@@H]1CCCN1C(=O)[C@H](CCC(N)=O)NC(=O)[C@H](CCCCN)NC(=O)[C@H](Cc1c[nH]cn1)NC(=O)[C@H](CS)NC(=O)[C@H](CCCNC(=N)N)NC(=O)[C@H](CCCCN)NC(=O)[C@H](CO)NC(=O)[C@H](CC(C)C)NC(=O)[C@H](CO)NC(=O)[C@H](Cc1ccccc1)NC(=O)[C@H](CC(C)C)NC(=O)[C@H](CCCCN)NC(=O)[C@H](Cc1c[nH]cn1)NC(=O)[C@@H](NC(=O)[C@@H](NC(=O)[C@H](CCCCN)NC(=O)[C@H](CCC(N)=O)NC(=O)[C@H](C)NC(=O)[C@H](CCCCN)NC(=O)[C@H](CC(C)C)NC(=O)[C@H](Cc1ccccc1)NC(=O)[C@H](CC(C)C)NC(=O)[C@H](CCC(N)=O)NC(=O)[C@H](CCCCN)NC(=O)[C@@H](N)CCSC)[C@@H](C)CC)C(C)C)[C@@H](C)CC)[C@@H](C)O)[C@@H](C)O)[C@@H](C)O)C(=O)O  HC50 (hemolysis): 27.7 µmol/L
CC(=O)N[C@@H](CCCCN)C(=O)N[C@@H](CCCCN)C(=O)N[C@@H](CC(C)C)C(=O)N[C@@H](CC(C)C)C(=O)N[C@@H](CCCCN)C(=O)N[C@@H](CC(C)C)C(=O)N[C@@H](CC(C)C)C(=O)N[C@@H](CCCCN)C(=O)N[C@@H](CCCCN)C(=O)N1CCC[C@H]1C(=O)N[C@@H](CC(C)C)C(=O)N[C@@H](CCCCN)C(=O)N[C@@H](CC(C)C)C(=O)N[C@@H](CC(C)C)C(=O)N[C@@H](CCCCN)C(N)=O  MHC10 (haemolysis; 6 h, 37 °C, 5% haematocrit in PBS): > 160 µM

A few entries again:
CC[C@H](C)[C@H](NC(=O)[C@H](CCCNC(=N)N)NC(=O)[C@@H](NC(=O)[C@H](CC(C)C)NC(=O)[C@H](Cc1c[nH]c2ccccc12)NC(=O)[C@H](Cc1ccc(O)cc1)NC(=O)[C@@H](NC(=O)[C@H](CO)NC(=O)[C@@H](NC(=O)[C@H](CCCNC(=N)N)NC(=O)[C@H](CCC(N)=O)NC(=O)[C@H](CCCNC(=N)N)NC(=O)[C@@H]1CCCN1C(=O)[C@H](CC(C)C)NC(=O)[C@H](CO)NC(=O)[C@@H](NC(=O)[C@H](CC(C)C)NC(=O)[C@@H]1CCCN1C(=O)[C@H](CCC(N)=O)NC(=O)[C@H](CCCCN)NC(=O)[C@H](Cc1c[nH]cn1)NC(=O)[C@H](CS)NC(=O)[C@H](CCCNC(=N)N)NC(=O)[C@H](CCCCN)NC(=O)[C@H](CO)NC(=O)[C@H](CC(C)C)NC(=O)[C@H](CO)NC(=O)[C@H](Cc1ccccc1)NC(=O)[C@H](CC(C)C)NC(=O)[C@H](CCCCN)NC(=O)[C@H](Cc1c[nH]cn1)NC(=O)[C@@H](NC(=O)[C@@H](NC(=O)[C@H](CCCCN)NC(=O)[C@H](CCC(N)=O)NC(=O)[C@H](C)NC(=O)[C@H](CCCCN)NC(=O)[C@H](CC(C)C)NC(=O)[C@H](Cc1ccccc1)NC(=O)[C@H](CC(C)C)NC(=O)[C@H](CCC(N)=O)NC(=O)[C@H](CCCCN)NC(=O)[C@@H](N)CCSC)[C@@H](C)CC)C(C)C)[C@@H](C)CC)[C@@H](C)O)[C@@H](C)O)[C@@H](C)O)C(=O)O  HC50 (hemolysis): 27.7 µmol/L
